Results pooled from the literature.
A part holds a random share of what one study measured. Changes are numbered by the printed parent chain.

Block 1 — method: universal PBM; molecule type: double-stranded DNA, one strand shown; medium: in vitro; concentration: not given; reading: higher = stronger binding; measurement: E-score
Target: Sal-like protein 4, full length isoform B (SALL4, Homo sapiens, UniProt Q9UJQ4-2, residues 1-616)
Setting: 8-mer, flanks averaged, mean of replicates
CACCCTGA: -0.114
ACCCGAGT: -0.268
ACACCTCG: -0.0353
ACACCGAC: -0.244
CGAGTGCA: -0.0259
CTAAAACA: 0.136
ACCAACAA: 0.0599
AGACAAGC: -0.0649
GCGTTTAC: -0.104
CCCGCTTA: -0.174
AATAAAGC: 0.262
GCGCGTAC: -0.115
CAGAGTGC: -0.18
CCCACCGG: -0.309
AGGACAGG: -0.251
ACAAGGCA: -0.0285
ACAGATGT: 0.117
AGCACGAC: -0.291

Block 2 — target: CCND2, cyclin fold, Cln2 fusion (human); method: yeast growth competition, sequencing; medium: yeast; setting: weak parent motif; reference: not given; reading: higher = stronger binding; measurement: normalised enrichment score
Starting sequence: SLBP docking peptide (human); ARYKRKLLINDFG
F12W: 0.00263
K6N: 0.492
I9N: 0.311
G13D: 0.0371
R2A: 0.0945
I9C: 0.326
F12N: 0.442
L8D: 0.0635
Y3K: -0.00727
G13E: 0.422
L8E: 0.427
L8P: 0.476
R5F: 0.221
R2D: 0.59
K6P: -0.043
Y3V: 0.161
K6I: 0.0179
G13H: 0.333
N10R: -0.0904
L8V: 0.547
I9A: -0.237
K4R: -0.283
R2C: 0.146
R5A L7A: 0.23
K6E: 0.263

Block 3 — method: protein binding microarray; molecule type: double-stranded DNA, one strand shown; medium: in vitro; concentration: not given; reference: not given; reading: higher = stronger binding; measurement: E-score
Target: Histone acetyltransferase KAT6A, both winged helices, GST fusion (KAT6A, Homo sapiens, UniProt Q92794, residues 1-181)
Setting: 8-mer, flanks averaged, mean of 2 arrays, mostly near background
Target sequence (chain): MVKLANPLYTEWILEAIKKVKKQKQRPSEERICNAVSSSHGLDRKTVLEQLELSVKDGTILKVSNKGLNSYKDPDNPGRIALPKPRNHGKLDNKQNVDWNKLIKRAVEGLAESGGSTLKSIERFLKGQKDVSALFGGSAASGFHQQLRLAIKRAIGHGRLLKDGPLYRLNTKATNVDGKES
CCGATAGG: 0.0972
CTCCTGGA: -0.121
CCGGATCC: 0.107
CTTGCCAA: -0.192
GAGCCGAA: 0.00749
ACTTACTC: -0.0968
AACGAGTC: -0.0669
CGCGAGAA: 0.193
CTAAAACA: -0.0687
ACCCCATC: -0.134
AGAGAGAT: -0.181
CGTTTGAC: 0.166
GTTCGTCA: 0.0416
AGCTTCTG: -0.0386
CGCCAAAG: 0.117
CTCGAAGC: 0.00304
AGGGAGCG: 0.104
GCGAGATA: 0.0163
CGGTCTTC: 0.0993
AAACCACG: 0.101
GATCCACC: -0.0282
TAGGACAA: -0.209
TTAGTGAA: -0.101
CCAAGACG: -0.0245
AGACTATC: -0.0572

Block 4 — method: protein-binding microarray; molecule type: double-stranded DNA, one strand shown; medium: in vitro; concentration: 250 nM; setting: 60-bp whole probe; together with: salmon DNA 0.4 mg/ml; reference: random background probes; reading: higher = stronger binding; measurement: log fluorescence; all sequences stand within: GCCTAGCAC … GTCTTGATTCGCTTGACGCTGCTG
Target: Interferon regulatory factor 5, full length, phosphomimetic (IRF5, Homo sapiens, UniProt Q13568-2, residues 1-514, K96S/S451D/S453D/S456D/S462D)
GACGGTTTCAACACTGGGGACGTGCTA: 0.892 z-score
TTAGATCTCAGGCTGGATTAGTGCTAG: -0.338 z-score
GACGGACTGGGGTTTCAGGACGTGCTA: -0.389 z-score
TTAGGTTTCCTTAACCTTTAGTGCTAG: 0.505 z-score
TTAGGACTGGACTATCGGTTTGTGCTA: 5.07 z-score
GACGGACTGCTCATCCTGACGTGCTAG: -0.589 z-score
CAGGTTTCTGATGGGCCTAGGTGCTAG: 0.906 z-score
CATTTATTTACTCTCTACATGTGCTAG: 0.985 z-score
TCATGTTTTTTTCTACTACTGTGCTAG: 1.38 z-score
GACGGACTGCTTTTCCTAACGTGCTAG: -0.214 z-score
TTAGGACTGGACTATCGCTTAGTGCTA: 1.12 z-score
TTAGGTTGCGACACTGGGTTAGTGCTA: -0.104 z-score
TTAGGTTTCGGTTCGGGTTAGTGCTAG: 10.4 z-score
TCACTTCTGCATTACAGACTGTGCTAG: 0.346 z-score
GGAAAAATGATGTTTTAGGTCGTGCTA: 0.433 z-score
GACGGACTGCTTCTCGTGACGTGCTAG: -0.436 z-score
TTAGGTATCGGGTTCGGTTAGTGCTAG: 3.23 z-score
GACGGTCTCATTTTCCTGACGTGCTAG: 0.401 z-score
TTAGGTTTCCTACTGTTTTAGTGCTAG: 0.625 z-score

Block 5 — method: competition protein-binding microarray; molecule type: double-stranded DNA, one strand shown; medium: in vitro; concentration: 2 µM; together with: Cbf1 competitor, 0.05 µM; reading: higher = stronger binding; measurement: fluorescence intensity
Target: Phosphate system positive regulatory protein PHO4, full length, GST-tagged (PHO4, Saccharomyces cerevisiae, UniProt P07270, residues 1-312)
Setting: whole 60-bp probe, lowest competitor level
Target sequence (chain): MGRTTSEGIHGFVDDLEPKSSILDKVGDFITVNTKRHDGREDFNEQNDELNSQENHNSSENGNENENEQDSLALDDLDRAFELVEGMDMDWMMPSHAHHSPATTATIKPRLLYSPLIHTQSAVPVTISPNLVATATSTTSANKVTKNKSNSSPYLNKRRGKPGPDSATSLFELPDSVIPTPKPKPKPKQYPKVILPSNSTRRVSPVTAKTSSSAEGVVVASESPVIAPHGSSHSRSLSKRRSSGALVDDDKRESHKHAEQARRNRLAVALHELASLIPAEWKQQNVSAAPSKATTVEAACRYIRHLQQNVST
CATACCCAACCTTTTCACGTGCCTTAAGATATTTGTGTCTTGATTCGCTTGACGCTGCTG: 14900 a.u.
ATCGAGGGAAAAAAAGTTGTGACGGAGGGGAAGGTTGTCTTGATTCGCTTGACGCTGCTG: 3890 a.u.
GTCTTGTCTCATTGTATAGTGGGTGTCCCCACTTCAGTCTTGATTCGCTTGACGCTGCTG: 4280 a.u.
AAAGCGGTAATTTGGCCTGTGGGTGCAGATATCTATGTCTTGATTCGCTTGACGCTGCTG: 4210 a.u.
CATACCCAACCTTGTTTGGTGGGTGAAGATATTTGTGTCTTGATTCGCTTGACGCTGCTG: 3480 a.u.
AATCATGGAATCCATCACGTGGTCGCAACTGGGGATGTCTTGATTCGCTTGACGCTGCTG: 19000 a.u.
GTCTTGTCTCATTGACCAGTGGGTGTCCCCACTTCAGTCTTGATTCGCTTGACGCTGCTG: 4530 a.u.
AAAGCGGTAATTTTTCACGTGGGTTCACATATCTATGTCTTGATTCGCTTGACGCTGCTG: 14900 a.u.
CGGGGTTAAGTTTTTCACGTGGGCTGCTTGCAGCAGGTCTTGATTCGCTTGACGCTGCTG: 12800 a.u.
AAATTACTAAGTTGCTGTGTGGGTGACGCCGTATGAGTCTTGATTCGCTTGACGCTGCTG: 4870 a.u.
GACCGTCTCTCCCAACACGTGCCAGAGCTTGTTGATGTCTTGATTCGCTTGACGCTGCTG: 18800 a.u.
TATCCCATCTAATATTCCGTGATGGTTTAATGGTCAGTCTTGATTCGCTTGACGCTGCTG: 4090 a.u.
CAGGAGAACTTGCATCATGTGGTGTTCTTCCGAGATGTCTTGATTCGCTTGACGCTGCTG: 8940 a.u.
CGTCCTAGCGATTGATGCGTGGGTGCCATGAGGAAGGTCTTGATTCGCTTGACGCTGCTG: 8540 a.u.
TCGTCAGGACAAATGAACGTGGTCGATCCTCCGCCGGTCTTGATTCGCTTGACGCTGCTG: 11000 a.u.
CTTTCCCGATCTTCCCACGTGTTTTTAGCACATTTGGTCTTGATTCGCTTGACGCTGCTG: 16200 a.u.
CGACGAAGTACTGGACACGTTCCCTTCAAACATCAAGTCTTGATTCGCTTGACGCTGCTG: 13600 a.u.
CCGGAACAACCTTGGTGCATGACAGAACGTAGACCAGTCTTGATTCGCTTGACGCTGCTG: 5060 a.u.
CCGCCCGGTGCAATACACACGGCAAGCACTTTATCAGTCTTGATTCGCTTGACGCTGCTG: 5500 a.u.

Other studies, line by line
PhoQ, residues 284 288 289 292 302 303 SIHLQL  fold induction (PhoP, residues 12 14 15 18 19 HLGGL (Escherichia coli, UniProt P23836); Sort-seq, measured: YFP reporter; E. coli; PhoQ-PhoP variant library, together with: 10 µM Mg2+; reference: high Mg2+ state, higher = stronger signaling): 14.4

Some of these lines once more (block 2):
F12N: 0.442
L8D: 0.0635
Y3K: -0.00727
G13E: 0.422
L8E: 0.427
L8P: 0.476
R5F: 0.221
R2D: 0.59
K6P: -0.043
